Results pooled from the literature.
Every numbered part comes from another study and shows a few of its results, in no order. Substitutions count along the parent as printed.

Study 1
Target: Phosphate system positive regulatory protein PHO4, full length, GST-tagged (PHO4, Saccharomyces cerevisiae, UniProt P07270, residues 1-312)
Technique: competition protein-binding microarray
Molecule type: double-stranded DNA, one strand shown
Medium: in vitro
Concentration: 2 µM
Setting: whole 60-bp probe, lowest competitor level
Added: Cbf1 competitor, 0.05 µM
Reading: higher = stronger binding
All sequences stand within: … GTCTTGATTCGCTTGACGCTGCTG
Construct (chain): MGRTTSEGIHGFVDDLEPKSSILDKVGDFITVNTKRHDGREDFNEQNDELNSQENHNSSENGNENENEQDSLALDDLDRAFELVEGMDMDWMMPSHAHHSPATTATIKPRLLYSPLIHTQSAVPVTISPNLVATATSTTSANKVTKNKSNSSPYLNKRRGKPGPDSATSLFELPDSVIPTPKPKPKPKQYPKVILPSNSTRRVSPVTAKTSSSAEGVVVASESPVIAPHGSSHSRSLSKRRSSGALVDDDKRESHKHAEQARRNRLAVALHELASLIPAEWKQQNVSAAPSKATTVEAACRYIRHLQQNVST
Strand | fluorescence intensity
ATTTGGTTCGAGCGTCATGATTGCTAAGGAAGTTAA | 3740 a.u.
TGCCTTTTTCATTGTCATGTGGGTTTTGGAGAGCTT | 6790 a.u.
AGACTGGGTCTCAGTCAGCTGAACAGAAAACTTCAA | 2110 a.u.
AAAGCGGTAATTTGGGCTGTGGGTGCAGATATCTAT | 4100 a.u.
CGGGGTTAAGTTTGTGGTGTGGGTGGCTTGCAGCAG | 6870 a.u.
ATCATCGAGTGAAGTATCGTGACTCGTACATTTGAA | 5630 a.u.
CGAAGATTGCCGCGATCCGTGACTCGAAGCTACACC | 4080 a.u.
AACCCGCTAACGAGTCACGTGGTGGTCAAGTAAGCA | 14100 a.u.
AAAGCGGTAATTTTTCACGTGTGATCAAATATCTAT | 13300 a.u.
CATACCCAACCTTGGTGCGTGGGTGAAGATATTTGT | 10300 a.u.
TAAGGGAATGTCCATCACGTGAAGGAAAATTCAAGT | 12800 a.u.
GCAGACTTGATCGTCTTCGTGATGGTAGCTTTCTGT | 3910 a.u.
TTGTCTCAACGCCATCACGTGACTCGCACTGCCTGC | 12500 a.u.
TGCGCAACAACTTGAATAGTGGGTGTATGTCTAGAA | 4460 a.u.
CGGGGTTAAGTTTGGGGAGTGGGTGGCTTGCAGCAG | 5180 a.u.
AAATGCCGCTTAGAGAACGTGGAAGAAGAGTTTGAT | 13900 a.u.
GGAAACTCTGGCGGCCACGTGAATTCAAATTACAAC | 12700 a.u.
TGCCGCATTTCTTCCCGCGTGGCAACTTCTGCGTAC | 8870 a.u.
TACTTTAAAGATATACACGCACGGAAATGGTTCCAA | 7220 a.u.
AGTGTCCAACTTATTAAGGTGCGGGCGCCTGGCTTG | 3850 a.u.
TGCGCAACAACTTTTCACGTGGTATTATGTCTAGAA | 15100 a.u.
ATATATACTTTAGCATACGTGTGAATACGCCATATC | 6150 a.u.
CTTATATCCTGGCTCAACGTGAAGAGATTCTAGATC | 8410 a.u.
GGCATATCAATATGACATGTGATATCACTCCGCGGC | 9120 a.u.
CATACCCAACCTTTTCACGTGGAATAAGATATTTGT | 13600 a.u.

Study 2
Target: CCNB2, cyclin fold, Cln2 fusion (human)
Technique: yeast growth competition, sequencing
Medium: yeast
Setting: weak parent motif
Relative to: not given
Reading: higher = stronger binding
Parent: INSM1 docking peptide (human); PKAIRKLHFEDEV; partner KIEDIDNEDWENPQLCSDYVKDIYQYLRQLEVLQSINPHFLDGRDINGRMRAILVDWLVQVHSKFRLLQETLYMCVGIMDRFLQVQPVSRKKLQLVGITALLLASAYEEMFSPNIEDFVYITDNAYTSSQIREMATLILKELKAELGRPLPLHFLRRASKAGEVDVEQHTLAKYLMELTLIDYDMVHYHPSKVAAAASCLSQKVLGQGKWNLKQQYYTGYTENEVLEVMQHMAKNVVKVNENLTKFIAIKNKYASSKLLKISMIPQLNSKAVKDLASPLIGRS
Substitution | normalised enrichment score
PKAVRKLHFEDEV [I4V] | -0.0842
PKAIRKLPFEDEV [H8P] | 0.487
PIAIRKLHFEDEV [K2I] | 0.559
PKAIRMLHFEDEV [K6M] | 0.444
PKASRKLHFEDEV [I4S] | 0.276
PKAIRKLHFEDHV [E12H] | 0.653
PKAQRKLHFEDEV [I4Q] | 0.445
PKAIRKLHFEGEV [D11G] | 0.442
PKTIRKLHFEDEV [A3T] | 0.0657
PKAIRFLHFEDEV [K6F] | 0.0524
PKAIMKLHFEDEV [R5M] | 0.183
PKYIRKLHFEDEV [A3Y] | 0.473
PKDIRKLHFEDEV [A3D] | -0.354
PKAIRKYHFEDEV [L7Y] | 0.459
PKAIRCLHFEDEV [K6C] | -0.0491
PKAIRKLRFEDEV [H8R] | 0.278
PKAIRKTHFEDEV [L7T] | 0.361
PKAIRQLHFEDEV [K6Q] | 0.647
PKAIRKLYFEDEV [H8Y] | 0.401

Study 3
Target: Hepatocyte nuclear factor 3-alpha (Foxa1, Mus musculus, UniProt P35582, residues 1-468, full length assumed)
UniProt P35582, sequence (whole entry, looked up): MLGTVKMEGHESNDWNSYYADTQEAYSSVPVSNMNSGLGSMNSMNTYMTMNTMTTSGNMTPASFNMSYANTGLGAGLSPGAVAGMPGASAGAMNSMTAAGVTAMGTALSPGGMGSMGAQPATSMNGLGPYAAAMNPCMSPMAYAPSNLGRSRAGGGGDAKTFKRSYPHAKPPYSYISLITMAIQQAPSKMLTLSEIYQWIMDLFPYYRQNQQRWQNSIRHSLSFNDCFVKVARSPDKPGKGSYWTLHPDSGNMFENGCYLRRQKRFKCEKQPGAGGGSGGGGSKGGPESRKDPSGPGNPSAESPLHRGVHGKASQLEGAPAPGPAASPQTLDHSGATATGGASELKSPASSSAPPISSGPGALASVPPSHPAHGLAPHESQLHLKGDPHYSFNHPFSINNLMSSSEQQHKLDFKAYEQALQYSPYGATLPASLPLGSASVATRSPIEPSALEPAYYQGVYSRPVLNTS
Technique: EMSA with sequencing
Molecule type: double-stranded DNA, one strand shown
Medium: in vitro
Concentration: 10 and 20 nM
Setting: whole designed probe, mean of two concentrations, ends assumed
Relative to: negative control set to 0
Reading: higher = stronger binding
All sequences stand within: GTGAGCGGTGCCCATTGATGGGGAAC … TTTCACTGGGATCGTGGGGAC
Strand | normalised bound fraction
CTGAATACATCAAAATTGTGTGAGATTATTGTTACCAATAACAAATAAATCTACTTACAAGTGGACCTTATTGTTAGACATGGCATGGCAATGTAATCTTAGAACCTTTGAATCAATAAATATAAAATTCATAAAGGATTACATTTTACAGTGGAACAAGTGGTTTCAAGTATAGCAAATCTGAAAATGAAAA | 0.268 ratio
ATAAAGCTTTTCACCTGACGCAGGATAATAGCGAGTGCATGTGTGCTGGTTTGTTTACTGTGAGTCTCTCAGAGGAAATCATGTGCATCTGTCTGTTTACTTTTCCGTGGAACCTAGAAGGTCACCTCTAAAAATAATCTTGCTCGGTGTTAGAGTTTCTGTGACACAGAGGTACATACCTCACATGCTCTCC | 0.48 ratio
TAATAAGTAGTAATGCAATTATATTCTAAAATTCAAATGAAAATGTCTATTACTTTATACAACTATACATCTTTAAACACGAGCAATCTACAAAGTAAACACGGAATCTAAACTTACTGATGTATTCACCAAAATTACCTCTCCCTGATATATTATTCTATACATTATAAATGCCTGAGAATTGACACTTTTA | 0.379 ratio
ATCTTCCCCCTCTTCCTTGCCCCACCAGCTCACCTTCCCGGGTTATTTGCAGATAGGAAAATAAATGCCGAGAACATTCGTTAACCCTCTTCTGGCGCAAACTGCTGTTTGCTCTGGATGAATCATGGTCCTTTGGCGACGCCAGGCTCCGGGAGAGCAAAGCACCGTGTCAGGGCCATGATCCGGGGTGGCC | 0.199 ratio
GAGAACTTTTTTCATATAATTATTTTAAAAATTGTTTTATTCTTAAAGCAATTGATATTATCTACTAAAAAATTTTTAGTAGTGAAATGACATGTTTACATTGTCTTTAGAAAAATACTTCTAGCAATGTGAAGTTCAATGAGAAAGATATACACATAAATATTGTATTTTGTTTCTCTTGGTTTATGTGTAT | 0.324 ratio
TCCACAGTAGAAACGAAGGAGATGACAGATACCCCGGCACCAAAACTGACACCAGGTTTTTGTTGCTTCTTCCACTATATAATGGAGAAGTTCAGATTACTCTAGTTGTGCAACTACTGTTAACATTGGCTTAAGGAAACCCAAGAAACTGAATCACATCAAAGGTATGTCAGAGGTATGTGAACCAGAGCAA | 0.228 ratio
TTGCATTTTCTAAACAAAATTTTAAAAAGATATCATGTGTACATACAGGTCAAAAGTATTTGAGCTAAGAATGCCAAAGTCCTTACTTCCCTTGTTTACTTAAGCTATAGCTTAGACACTTGGTATTTATCGATATTTTAAAGTAATCGACCAGGATTTTACATATCATATTCCTTAAAATAAAGATGTATGG | 0.515 ratio
TATAATTACATTACCTGATTAAGAAATTATGATGCAGAATAAAATGATTATGAAAGGTGATGACTTTAAATAAAATCTATCCTAAAGTATTCTTTGTTTACTTAGTAAAGCATGTGATTAGCAAAATTACATAGTACTCTGCTCTTCCTAGTTACGTATTTTTGAAGGAAAGCAAATAACATGCATTCAGCAC | 0.581 ratio

Study 4
Target: Histone acetyltransferase KAT6A, both winged helices, GST fusion (KAT6A, Homo sapiens, UniProt Q92794, residues 1-181)
Technique: protein binding microarray
Molecule type: double-stranded DNA, one strand shown
Medium: in vitro
Concentration: not given
Setting: 8-mer, flanks averaged, mean of 2 arrays, mostly near background
Relative to: not given
Reading: higher = stronger binding
Residues (chain): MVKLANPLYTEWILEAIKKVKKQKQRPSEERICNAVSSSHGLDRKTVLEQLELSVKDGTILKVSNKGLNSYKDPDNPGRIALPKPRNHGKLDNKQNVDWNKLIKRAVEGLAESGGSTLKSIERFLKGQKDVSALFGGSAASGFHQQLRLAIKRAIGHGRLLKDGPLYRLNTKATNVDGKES
Strand | E-score
GGATTCAC | -0.0508
TCCAGCAA | -0.271
ACATGCCA | -0.15
GGCTCGCA | 0.0328
CATGCCCC | -0.172
CCCCAAGG | -0.202
CCGACATC | 0.1
TCAGGAAA | -0.0613
ATTTATAA | -0.0604
CGGCTAGC | 0.229
AGTGATTC | -0.102
CAGGAGAG | -0.269
ACGCACAA | 0.0671
CTTACTGA | -0.069
CACAAGGC | -0.11
AACTGAAC | -0.0362
AAAACCGA | 0.135
CCTCAATC | -0.0294
ACGGAGAA | 0.118
CCCGGATC | 0.0175
CCCTCGTC | -0.199
CCCGTCGA | 0.256
GGGAAGAA | -0.0705
GGTCGACA | 0.0443
TACTCGGA | 0.0454

Repeated from above (study 2):
Substitution | normalised enrichment score
PKDIRKLHFEDEV [A3D] | -0.354
PKAIRFLHFEDEV [K6F] | 0.0524
PKAIMKLHFEDEV [R5M] | 0.183
PKAQRKLHFEDEV [I4Q] | 0.445
PKAIRKYHFEDEV [L7Y] | 0.459
PKASRKLHFEDEV [I4S] | 0.276
PKTIRKLHFEDEV [A3T] | 0.0657
PKAIRKTHFEDEV [L7T] | 0.361
